{"data": "Results gathered from unrelated publications"}
{"SMILES": "C=C/C=C(\\C)CC[C@@H](O)C[C@H](O)CC(=O)OC", "organism": "Bacillus cereus", "assay": "microbial growth, broth dilution", "test system": "ATCC10876", "MIC": "128 µg/mL"}
{"SMILES": "CCCC(C)Oc1cccc(NC(=O)c2cccnc2)c1 (stereo not shown)", "organism": "Nakaseomyces glabratus", "assay": "microbial growth, broth dilution", "test system": "MY1381", "MIC": "32 µg/mL"}
{"SMILES": "C[C@@H]1C(=O)O[C@@H](C)/C=C/C=C\\[C@@H](C)[C@@H]2C=C[C@@H]3C[C@@]4(C)O[C@H]4[C@@H](C)[C@H]3[C@@H]2C(=O)C(Cl)(Cl)C1=O", "organism": "Staphylococcus aureus", "test system": "MRSA clinical isolate", "setting": "resistant: OXA", "MIC": "0.1 µg/mL"}
{"SMILES": "CN(Cc1ccc(C2(C(F)(F)F)CCC2)cc1)Cc1cccc2ccccc12", "organism": "Trichophyton rubrum", "assay": "microbial growth, broth dilution", "test system": "ATCC28188", "setting": "6 days", "MIC": "1000 µg/mL"}
{"SMILES": "CC1(C)[C@H](NC(=O)/C(=N\\OCC(=O)N2CCC(C(=O)O)CC2)c2csc(N)n2)C(=O)N1OS(=O)(=O)O", "organism": "Shigella flexneri", "assay": "agar dilution", "test system": "ATCC 12022, susceptible", "MIC": "2 µg/mL"}
{"SMILES": "CCNC(=S)NN=Cc1c2ccccc2cc2ccccc12.Cc1ccc(C(C)C)cc1.[Cl-].[Cl-].[Ru+2]", "organism": "Salmonella typhimurium, Pseudomonas aeruginosa, Escherichia coli", "assay": "broth microdilution", "setting": "tested 2 to 50 µM", "MIC": "inactive"}
{"SMILES": "CC1(C)[C@H](NC(=O)/C(=N\\OCCN)c2csc(N)n2)C(=O)N1OS(=O)(=O)O", "organism": "Proteus vulgaris", "assay": "agar dilution", "test system": "ATCC 29905, susceptible", "MIC": "0.125 µg/mL"}
{"SMILES": "CC[C@H](C)[C@@H]1NC(=O)[C@@H]([C@@H](C)O)NC(=O)CNC(=O)[C@H](CC(=O)O)NC(=O)CNC(=O)[C@H](CC(=O)O)NC(=O)CNC(=O)[C@H]2CCCCN2C(=O)[C@@H](NC(=O)[C@H](CC(=O)O)NC(=O)/C=C/CCCCCCCCCC(C)C)CNC(=O)[C@@H]2CCCN2C1=O", "organism": "Staphylococcus aureus", "assay": "broth microdilution", "test system": "MRSA USA300, Mueller-Hinton broth, Mg2+ 10 mg/L", "setting": "16 h, 37 °C, added: Ca2+ 0 mM", "MIC": "> 128 µg/mL"}
{"SMILES": "COC(=O)CNC(=O)c1ccc(NC(=O)c2[nH]c(C)c(Cl)c2Cl)c(N2CCN(C(=O)OC(C)(C)C)CC2)c1", "organism": "Klebsiella aerogenes", "assay": "microbial growth, broth dilution", "test system": "ATCC13408", "MIC": "> 32 µg/mL"}
{"SMILES": "CC1(C)[C@H](NC(=O)/C(=N\\OCc2c(Cl)cccc2Cl)c2csc(N)n2)C(=O)N1OS(=O)(=O)O", "organism": "Proteus vulgaris", "assay": "agar dilution", "test system": "ATCC 29905, susceptible", "MIC": "0.06 µg/mL"}
{"SMILES": "Cc1c(CN(C)C(=O)/C=C/c2cnc3c(c2)CC(N)C(=O)N3)oc2ccccc12 (stereo not shown)", "organism": "Acinetobacter baumannii", "assay": "broth microdilution", "test system": "AR-0273", "MIC": "32 µg/mL"}
{"SMILES": "C#CCNC(=O)C(C)(C)O/N=C(\\C(=O)N[C@@H]1C(=O)N(S(=O)(=O)O)[C@H]1C)c1csc(N)n1", "organism": "Proteus vulgaris", "assay": "agar dilution", "test system": "ATCC 29905 susceptible", "MIC": "0.125 µg/mL"}
{"SMILES": "CC1C=CC=CC(C)C2C=CC3CC(C)(O)C(Cl)C(C)C3C2C(=O)C(Cl)(Cl)C(=O)C(C)C(=O)O1 (stereo not shown)", "organism": "Staphylococcus aureus", "test system": "MRSA clinical isolate", "setting": "resistant, ERY, CLI, TET, OXA, SXT", "MIC": "0.1 µg/mL"}
